Published values from different studies.
Parts stem from different laboratories: compare values within a part only. Substitutions count along the parent as printed.

Sample 1
Target: Sal-like protein 4, full length isoform B (SALL4, Homo sapiens, UniProt Q9UJQ4-2, residues 1-616)
Technique: universal PBM
Form: double-stranded DNA, one strand shown
Sample: in vitro
Tested at: not given
Notes: 8-mer, flanks averaged, mean of replicates
Direction: higher = stronger binding
Oligonucleotide | E-score
CATAACTA | 0.358
ATGTTGAC | 0.14
GAGCGATC | -0.179
GACCGACA | -0.193
CAGCCGCC | -0.405
AGCTTTAA | 0.121
ACATCGGA | -0.0331
AATAGAGG | 0.0629

Sample 2
Target: vanadate, free oxyanion
Technique: microfluidic competitive inhibition
Sample: in vitro, cell-free expressed
Tested at: not given
Notes: derived from inhibition constants, unchanged parent 676 nM
Direction: lower = stronger binding
Starting sequence: PafA, mature enzyme, eGFP fusion (Elizabethkingia meningoseptica, UniProt Q9KJX5); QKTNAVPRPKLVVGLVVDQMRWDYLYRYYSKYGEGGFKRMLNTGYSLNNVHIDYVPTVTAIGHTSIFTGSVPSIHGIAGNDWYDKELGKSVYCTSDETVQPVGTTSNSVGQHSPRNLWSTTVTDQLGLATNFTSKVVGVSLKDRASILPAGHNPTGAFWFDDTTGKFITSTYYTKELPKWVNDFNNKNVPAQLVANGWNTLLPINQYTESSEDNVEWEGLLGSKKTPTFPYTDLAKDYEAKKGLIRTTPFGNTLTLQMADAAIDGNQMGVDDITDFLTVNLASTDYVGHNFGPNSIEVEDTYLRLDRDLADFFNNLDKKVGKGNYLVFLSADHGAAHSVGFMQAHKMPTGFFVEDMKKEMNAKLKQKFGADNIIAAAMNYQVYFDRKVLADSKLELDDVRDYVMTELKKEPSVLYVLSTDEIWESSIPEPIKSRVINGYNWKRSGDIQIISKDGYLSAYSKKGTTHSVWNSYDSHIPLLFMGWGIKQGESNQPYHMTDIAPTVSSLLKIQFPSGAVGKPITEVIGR
Substitution | oxyanion analog dissociation constant [nM]
I427G | 3320
L414G | 555
I77V | 848
D453G | 565
G323V | 742
V122A | 603
G156A | 464
S108V | 663
Y32V | 705
T464V | 671
R27V | 1060
R400G | 564
S119V | 608
A375G | 586
K31G | 671
A261G | 878
P249G | 1320
K508V | 726
H337G | 666
L389G | 726
E97V | 594
T247G | 584

Sample 3
Target: CCNF, cyclin fold, Cln2 fusion (human)
Technique: yeast growth competition, sequencing
Sample: yeast
Notes: strong parent motif
Baseline: not given
Direction: higher = stronger binding
Starting sequence: viral docking peptide; KGVKRKLFAEDSS; partner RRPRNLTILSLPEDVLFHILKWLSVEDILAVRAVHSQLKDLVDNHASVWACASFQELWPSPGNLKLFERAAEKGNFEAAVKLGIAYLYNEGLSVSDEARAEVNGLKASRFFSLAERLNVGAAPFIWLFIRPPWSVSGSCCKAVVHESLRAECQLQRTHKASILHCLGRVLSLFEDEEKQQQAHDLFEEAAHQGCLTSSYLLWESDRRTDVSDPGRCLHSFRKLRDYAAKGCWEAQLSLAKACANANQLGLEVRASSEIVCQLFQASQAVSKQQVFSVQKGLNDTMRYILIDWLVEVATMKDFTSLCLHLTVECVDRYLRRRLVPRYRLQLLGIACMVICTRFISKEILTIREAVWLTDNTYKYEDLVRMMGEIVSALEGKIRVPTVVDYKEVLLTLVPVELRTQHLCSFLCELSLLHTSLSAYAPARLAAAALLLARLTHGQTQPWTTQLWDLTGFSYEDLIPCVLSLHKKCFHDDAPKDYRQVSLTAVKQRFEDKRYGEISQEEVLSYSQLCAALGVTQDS
Substitution | normalised enrichment score
KFVKRKLFAEDSS [G2F] | 8.26
KGVKRKLFAETSS [D11T] | 7.98
KGVKRDLFAEDSS [K6D] | 0.851
KGVKRKLFAQDSS [E10Q] | 7.48
KGVKRKLFADDSS [E10D] | 8.6
KGVKRKLPAEDSS [F8P] | 0.287
KGVKRKLFHEDSS [A9H] | 7.93
KGVKRKLFAEESS [D11E] | 8.26
KGVARKLFAEDSS [K4A] | 8.48
KGVKRKCFAEDSS [L7C] | 0.88
KGVKRKLFAFDSS [E10F] | 7.82
KGVCRKLFAEDSS [K4C] | 7.92
KGVKRKLWAEDSS [F8W] | 5.14
KGVKRPLFAEDSS [K6P] | 4.72
KGVKRKLFAEDAS [S12A] | 8.34
KGVKRKLFCEDSS [A9C] | 7.83
KGVKRCLFAEDSS [K6C] | 7.86

Mixed results
Substance | partner | test | system | conditions | endpoint | result
HSPA5 (Homo sapiens, UniProt P11021) | CEP112 (Homo sapiens, UniProt Q8N8E3) | cross-linking MS | cells | together with: BSPNO | cross-linked residues | K138 to K528

Repeated from above (sample 2):
Substitution | oxyanion analog dissociation constant [nM]
V122A | 603
G156A | 464
S108V | 663
Y32V | 705
